Values quoted from earlier work that unrelated publications cite.
pIC50, pKi: −log10 of the molar value.
Chain of UniProt P41595 (whole entry, looked up): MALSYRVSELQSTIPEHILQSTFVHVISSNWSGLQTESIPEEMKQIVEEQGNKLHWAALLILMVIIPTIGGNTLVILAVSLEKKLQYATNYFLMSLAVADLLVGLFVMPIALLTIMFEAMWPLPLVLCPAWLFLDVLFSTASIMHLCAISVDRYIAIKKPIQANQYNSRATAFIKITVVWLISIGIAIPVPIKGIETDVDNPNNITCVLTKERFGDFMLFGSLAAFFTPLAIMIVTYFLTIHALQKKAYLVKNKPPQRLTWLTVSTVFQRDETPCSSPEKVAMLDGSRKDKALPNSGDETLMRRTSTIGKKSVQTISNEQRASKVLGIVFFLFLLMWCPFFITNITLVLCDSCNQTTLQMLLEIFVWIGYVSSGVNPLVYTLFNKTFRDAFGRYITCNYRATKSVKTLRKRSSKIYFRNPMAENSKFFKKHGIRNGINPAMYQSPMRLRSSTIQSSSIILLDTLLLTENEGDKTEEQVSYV

SMILES | target or system | test | system | setting | measurement | result
CN(C)CCCN1c2ccccc2CCc2ccc(Cl)cc21 | Toxoplasma gondii | parasite growth | – | concentration not given, drug repurposing screen | activity class | inactive
Cc1cc(Nc2nccc(C)n2)cc(-c2cnc([C@@]3(O)CC[C@H](C(=O)O)C(C)(C)C3)s2)c1 | FGR | – | – | kinase panel | pIC50 | 6.73
OC[C@H]1O[C@@H](n2cnc3c(NC(C4CCC4)C4CCC4)nc(Cl)nc32)[C@H](O)[C@@H]1O | HTR2B (Homo sapiens, UniProt P41595) | binding | – | added: [3H]LSD | pKi | < 5.00
O=C(Nc1cccnn1)N1CCC(=Cc2cccc(Oc3ccc(C(F)(F)F)cn3)c2)CC1 | 5-HT2A receptor | Cerep binding | – | – | pKi | 5.80
Cc1nc2ccc(CN(C)c3ccc(C(=O)N[C@@H](CCC(=O)O)C(=O)O)s3)cc2c(=O)[nH]1 | Toxoplasma gondii | parasite growth | – | concentration not given | antiparasitic activity | active
CCC(=O)N[C@H]1CC[C@@H](C(=O)N(C)c2ccc(-c3nc4ccccc4o3)cc2)C1 | FASN | biochemical activity | – | – | pIC50 | 7.10
CC(C)[C@@H](CS(=O)(=O)C(C)C)N1C(=O)[C@@](C)(CC(=O)O)C[C@H](c2cccc(Cl)c2)[C@H]1c1ccc(Cl)cc1 | – | – | patients with solid tumours or lymphomas | dose not given, grade ≥3, first-in-human trials | patients with related thrombocytopenia | 33%
CC(=O)N1CCC(c2ccc(C(=O)NC3=NCCN3)cc2C(F)(F)F)CC1 | SLC9A1 | biochemical activity | – | – | pIC50 | < 5.00
COc1cc(C(=O)O)ccc1NC(=O)[C@@H]1N[C@@H](CC(C)(C)C)[C@](C#N)(c2ccc(Cl)cc2F)[C@H]1c1cccc(Cl)c1F | – | – | patients with solid tumours or lymphomas | dose not given, grade ≥3, first-in-human trials | patients with related thrombocytopenia | 33%

Repeated from above:
SMILES | target or system | test | system | setting | measurement | result
CC(=O)N1CCC(c2ccc(C(=O)NC3=NCCN3)cc2C(F)(F)F)CC1 | SLC9A1 | biochemical activity | – | – | pIC50 | < 5.00
